Values quoted from earlier work that unrelated publications cite.
Each line is one published result; not all experiments were run side by side.
Sequence of UniProt Q8TCC7 (whole entry, looked up): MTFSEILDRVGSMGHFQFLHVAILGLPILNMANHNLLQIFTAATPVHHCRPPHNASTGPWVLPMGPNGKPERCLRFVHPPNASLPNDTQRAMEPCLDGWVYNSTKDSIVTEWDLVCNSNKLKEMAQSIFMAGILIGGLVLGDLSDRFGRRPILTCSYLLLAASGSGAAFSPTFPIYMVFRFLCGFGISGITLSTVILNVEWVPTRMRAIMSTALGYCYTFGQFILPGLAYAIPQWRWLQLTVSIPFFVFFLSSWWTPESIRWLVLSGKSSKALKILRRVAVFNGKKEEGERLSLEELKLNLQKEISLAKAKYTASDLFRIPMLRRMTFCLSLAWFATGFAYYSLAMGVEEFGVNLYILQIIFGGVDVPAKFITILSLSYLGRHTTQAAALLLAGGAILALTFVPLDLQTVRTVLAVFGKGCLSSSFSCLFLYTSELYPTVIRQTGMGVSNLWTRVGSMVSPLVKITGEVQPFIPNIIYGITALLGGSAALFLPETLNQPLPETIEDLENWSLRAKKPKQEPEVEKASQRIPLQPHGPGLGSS

| Structure (SMILES) | target | test | system | conditions | scale | measurement | result |
| --- | --- | --- | --- | --- | --- | --- | --- |
| Cc1ccc(NC(=O)[C@H]2CCCN(C(=O)c3c(C)cccc3F)[C@H]2c2ccc(NC3CCCC3)cc2)cc1C(F)(F)F | CYP3A4 | inhibitor | human, fasted | oral, 30 mg twice daily, 11 days, together with: midazolam | reference: midazolam alone | midazolam Cmax increase | 1.6 fold |
| O=C(O)C(F)(F)C(F)(F)C(F)(F)C(F)(F)C(F)(F)C(F)(F)C(F)(F)F | OATP2B1 (human) | apical uptake, substrate | Caco-2 | – | – | Km | 8.3 µM |
| CN/C(=N/CCSCc1nc[nH]c1C)NC#N | OCT1 | – | – | – | – | Ki | 104 µM |
| Cc1c(O)cccc1C(=O)N[C@@H](CSc1ccccc1)[C@H](O)CN1C[C@H]2CCCC[C@H]2C[C@H]1C(=O)NC(C)(C)C | first-pass CYP3A human | – | – | concentration not given | – | inhibition | > 75% |
| O=C(NC(=O)c1c(F)cccc1F)Nc1cc(Cl)c(OC(F)(F)C(F)F)c(Cl)c1 | CYP3A4 | inhibitor | – | Tox21 screening | – | IC50 | inactive |
| C=C[C@@H]1C[C@]1(NC(=O)[C@@H]1C[C@@H]2CN1C(=O)[C@H](C(C)(C)C)NC(=O)O[C@@H]1C[C@H]1CCCCCc1nc3ccc(OC)cc3nc1O2)C(=O)NS(=O)(=O)C1CC1 | CYP2D6 | – | human liver microsomes | – | – | IC50 | > 100 µM |
| O=S(=O)([O-])C(F)(F)C(F)(F)C(F)(F)C(F)(F)C(F)(F)C(F)(F)C(F)(F)C(F)(F)F.[K+] | CYP3A4 | inhibitor | – | Tox21 screening | – | IC50 | inactive |
| CN(Cc1cnc2nc(N)nc(N)c2n1)c1ccc(C(=O)N[C@@H](CCC(=O)O)C(=O)O)cc1 | Organic anion transporter 3 (SLC22A8, Homo sapiens, UniProt Q8TCC7) | – | human | 200 mg/m2, without probenecid | – | clearance | 6.5 L/h |
| FC(F)(F)C(F)(F)C(F)(F)C(F)(F)CCI | CYP1A2 | inhibitor | – | Tox21 screening | – | IC50 | inactive |
| C[S+]([O-])c1nc2cc(Oc3cccc(Cl)c3Cl)c(Cl)cc2[nH]1 (stereo not drawn) | Bcrp, mouse | substrate | Bcrp knockout mice, plasma | dose not given | reference: wild-type mice | plasma concentration | increased |
| C=C(C)[C@@H]1CCC(C)=C[C@H]1c1c(O)cc(CCCCC)cc1O | CYP2C9, human | enzyme activity, inhibitor | human liver microsomes | 10 µM | – | inhibition | inhibited |
| FC(F)OC(F)(F)C(F)Cl (stereo not drawn) | CYP2C9 | inhibitor | – | Tox21 screening | – | IC50 | inactive |
